Published values gathered from unrelated publications.
A part holds a random share of what one study measured. Several values in a cell are separate wells, animals, samples, runs or records.
Chain of UniProt P08912 (whole entry, looked up): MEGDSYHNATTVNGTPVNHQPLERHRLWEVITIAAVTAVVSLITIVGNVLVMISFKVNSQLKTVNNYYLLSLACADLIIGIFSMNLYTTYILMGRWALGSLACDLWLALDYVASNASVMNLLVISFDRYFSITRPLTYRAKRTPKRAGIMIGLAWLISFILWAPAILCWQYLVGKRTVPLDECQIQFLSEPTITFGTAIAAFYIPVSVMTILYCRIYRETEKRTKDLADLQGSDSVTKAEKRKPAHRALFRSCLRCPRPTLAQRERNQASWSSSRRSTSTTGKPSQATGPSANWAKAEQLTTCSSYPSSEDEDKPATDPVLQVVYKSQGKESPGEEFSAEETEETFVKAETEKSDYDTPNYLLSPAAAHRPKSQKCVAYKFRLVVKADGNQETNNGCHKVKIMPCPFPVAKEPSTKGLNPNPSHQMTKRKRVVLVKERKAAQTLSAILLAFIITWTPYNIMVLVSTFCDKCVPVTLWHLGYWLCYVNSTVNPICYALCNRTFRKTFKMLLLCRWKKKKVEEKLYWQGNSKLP
Chain of UniProt P9WI81 (whole entry, looked up): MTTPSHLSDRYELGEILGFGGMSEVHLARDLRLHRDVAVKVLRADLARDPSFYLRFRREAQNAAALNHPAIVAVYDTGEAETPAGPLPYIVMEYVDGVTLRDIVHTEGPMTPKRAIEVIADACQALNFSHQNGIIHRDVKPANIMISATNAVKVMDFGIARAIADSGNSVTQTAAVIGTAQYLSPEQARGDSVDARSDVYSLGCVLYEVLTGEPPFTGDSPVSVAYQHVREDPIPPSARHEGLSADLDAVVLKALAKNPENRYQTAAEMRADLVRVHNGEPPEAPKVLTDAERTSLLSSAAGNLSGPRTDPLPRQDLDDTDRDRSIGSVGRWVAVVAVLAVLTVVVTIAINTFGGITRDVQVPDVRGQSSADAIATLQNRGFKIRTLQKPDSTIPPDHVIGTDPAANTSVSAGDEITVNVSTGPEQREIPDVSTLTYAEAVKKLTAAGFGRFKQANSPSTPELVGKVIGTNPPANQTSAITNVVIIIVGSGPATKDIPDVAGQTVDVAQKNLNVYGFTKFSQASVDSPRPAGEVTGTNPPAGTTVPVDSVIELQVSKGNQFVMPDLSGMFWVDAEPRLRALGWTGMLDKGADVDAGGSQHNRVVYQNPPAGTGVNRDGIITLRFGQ

Study 1 — cell line: HEK-293T; organism: VSV pseudotyped with VSV-G; concentration: 10 µM; time: 16 h
With `CC/C(=C(/CC)c1ccc(O)cc1)c1ccc(O)cc1` the pseudovirus infection was 109%.
With `CNCCCC12CCC(c3ccccc31)c1ccccc12` the pseudovirus infection was 120%.
With `CN(C)CCC=C1c2ccccc2C=Cc2ccccc21` the pseudovirus infection was 83.3%.
The pseudovirus infection of `Clc1ccc2nsnc2c1NC1=NCCN1` is reported as 71.7%.
With `COC(=O)C1=C(C)NC(C)=C(C(=O)OC)C1c1ccccc1[N+](=O)[O-]` the pseudovirus infection was 114%.
`O=C(O)c1cn(C2CC2)c2cc(N3CCNCC3)c(F)cc2c1=O` gave a pseudovirus infection of 97.8%.
For `C[C@H]1O[C@@H](O[C@H]2[C@@H](O)C[C@H](O[C@H]3[C@@H](O)C[C@H](O[C@H]4CC[C@@]5(C)[C@H](CC[C@@H]6[C@@H]5C[C@@H](O)[C@]5(C)[C@@H](C7=CC(=O)OC7)CC[C@]65O)C4)O[C@@H]3C)O[C@@H]2C)C[C@H](O)[C@@H]1O`, the pseudovirus infection was -0.22%.
With `Cn1c(=O)c2c(ncn2C)n(C)c1=O` the pseudovirus infection was 114%.
The pseudovirus infection of `O=C(O)COCCN1CCN(C(c2ccccc2)c2ccc(Cl)cc2)CC1` (stereo not drawn) is reported as 111%.
`Oc1ccc(O)cc1` has a pseudovirus infection of 93.5%.
`CC1=C(C(=O)O)N2C(=O)[C@@H](NC(=O)[C@H](N)c3ccccc3)[C@H]2SC1` gave a pseudovirus infection of 91.9%.
For `CCN[C@H]1C[C@H](C)S(=O)(=O)c2sc(S(N)(=O)=O)cc21`, the pseudovirus infection was 114%.
`NC(N)=Nc1nc(CSCCC(N)=NS(N)(=O)=O)cs1` has a pseudovirus infection of 98.6%.
`CN1CCC[C@H]1c1cccnc1` gave a pseudovirus infection of 110%.
For `OC(Cn1cncn1)(Cn1cncn1)c1ccc(F)cc1F`, the pseudovirus infection was 100%.
`N[C@@H](CCC(=O)N[C@@H](CS)C(=O)NCC(=O)O)C(=O)O` has a pseudovirus infection of 101%.
`CNC[C@H](O)c1ccc(O)c(O)c1` has a pseudovirus infection of 88.8%.
`CN(C)CCCN1c2ccccc2CCc2ccc(Cl)cc21` has a pseudovirus infection of 105%.
`CNCC[C@H](Oc1cccc2ccccc12)c1cccs1` gave a pseudovirus infection of 109%.
The pseudovirus infection of `CC(=O)Nc1nnc(S(N)(=O)=O)s1` is reported as 91.3%.
For `CC(C)c1c(C(=O)Nc2ccccc2)c(-c2ccccc2)c(-c2ccc(F)cc2)n1CC[C@@H](O)C[C@@H](O)CC(=O)O`, the pseudovirus infection was 162%.
`C[N+]1(C)CCC(OC(=O)C(O)(c2ccccc2)C2CCCC2)C1` (stereo not drawn) gave a pseudovirus infection of 102%.
For `Clc1ccccc1CN1CCc2sccc2C1`, the pseudovirus infection was 99.8%.
For `CN(C)CCOC(c1ccccc1)c1ccccc1`, the pseudovirus infection was 99.2%.
With `CCOc1ccc(Cc2cc([C@@H]3O[C@H](CO)[C@@H](O)[C@H](O)[C@H]3O)ccc2Cl)cc1` the pseudovirus infection was 104%.

Study 2 — action: inhibitor; concentration: 10 µM; baseline: control
Target: Diamine acetyltransferase 1 (Homo sapiens, UniProt P21673)
Target sequence (P21673 1-171): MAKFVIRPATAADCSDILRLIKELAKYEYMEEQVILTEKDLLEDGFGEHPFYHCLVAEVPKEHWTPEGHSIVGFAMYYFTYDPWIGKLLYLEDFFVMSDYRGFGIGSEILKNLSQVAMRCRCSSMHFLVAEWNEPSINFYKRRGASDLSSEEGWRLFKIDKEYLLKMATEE
`CC(C)=CCC[C@H](C(=O)O)[C@@H]1CC[C@]2(C)C3=C(CC[C@@]12C)[C@@]1(C)CCC(=O)C(C)(C)[C@@H]1CC3` gave a remaining activity of 87.8%.
The remaining activity of `CC(C)(C)[C@]1(O)C[C@@H]2OC(=O)C[C@@]23C(=O)O[C@@H]2OC(=O)[C@H](O)[C@]213` is reported as 96.5%.
The remaining activity of `CC[C@]12C=CCN3CC[C@]4(C(=C(C(=O)OC)C1)Nc1ccccc14)[C@@H]32` is reported as 101%.
The remaining activity of `C[C@@H]1CC[C@@]2(OC1)O[C@H]1C[C@H]3[C@@H]4CC=C5C[C@@H](O[C@@H]6O[C@H](CO)[C@@H](O[C@@H]7O[C@@H](C)[C@H](O)[C@@H](O)[C@H]7O)[C@H](O)[C@H]6O[C@@H]6O[C@@H](C)[C@H](O)[C@@H](O)[C@H]6O)CC[C@]5(C)[C@H]4CC[C@]3(C)[C@H]1[C@@H]2C` is reported as 107%.

Study 3 — read-out: enzyme activity; action: inhibitor; concentration: 10 µM
Target: Calcium/calmodulin-dependent protein kinase type II subunit alpha (CAMK2A, Homo sapiens, UniProt Q9UQM7)
Chain of UniProt Q9UQM7 (whole entry, looked up): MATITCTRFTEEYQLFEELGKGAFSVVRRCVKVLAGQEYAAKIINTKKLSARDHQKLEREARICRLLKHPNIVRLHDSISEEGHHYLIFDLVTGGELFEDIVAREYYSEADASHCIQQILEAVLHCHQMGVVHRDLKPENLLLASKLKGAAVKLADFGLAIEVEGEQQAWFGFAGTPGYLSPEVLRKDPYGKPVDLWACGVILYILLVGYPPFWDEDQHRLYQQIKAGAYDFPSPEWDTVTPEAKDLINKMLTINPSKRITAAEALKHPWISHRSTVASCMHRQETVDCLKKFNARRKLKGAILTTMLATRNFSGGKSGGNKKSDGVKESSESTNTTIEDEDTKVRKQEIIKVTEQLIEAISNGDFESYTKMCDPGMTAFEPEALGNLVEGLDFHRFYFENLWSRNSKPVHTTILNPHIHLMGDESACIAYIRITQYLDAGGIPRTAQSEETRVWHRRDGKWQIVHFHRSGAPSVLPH
For `CCC1(C)CC(=O)NC(=O)C1`, the inhibition was -2%.
The inhibition of `NC1CCSC1=O` (racemic) is reported as -22%.
With `COc1ccc(/C=C/c2cc(O)cc(O)c2)cc1` the inhibition was 19%.
`C=C1C/C(=C/C)C(=O)O[C@@H]2CCN3CC=C(COC(=O)[C@]1(C)O)[C@H]23` gave an inhibition of 2%.
`CC(C)[C@@H]1NC(=O)[C@H](CCCCN)NC(=O)[C@@H](Cc2c[nH]c3ccccc23)NC(=O)[C@H](Cc2ccc(O)cc2)NC(=O)[C@@H](NC(=O)[C@H](N)Cc2ccc3ccccc3c2)CSSC[C@@H](C(=O)N[C@H](C(N)=O)[C@@H](C)O)NC1=O` has an inhibition of -10%.
`O=C(O)CCCc1ccc(N(CCCl)CCCl)cc1` gave an inhibition of 2%.
With `C=C[C@]12CN(C)[C@@H]3[C@H]4CO[C@H](C[C@H]41)[C@]1(C(=O)N(OC)c4ccccc41)[C@@H]32` the inhibition was -7%.

Study 4 — organism: Sarcocystis neurona; read-out: parasite growth; concentration: 10 µM; time: 96 h; setting: second screen; baseline: untreated
`FC(F)(F)c1cccc(N2CCNCC2)c1`: “log2 fold change” 0.54.
Under “log2 fold change”, `CN1CCN(C(=O)O[C@H]2c3nccnc3C(=O)N2c2ccc(Cl)cn2)CC1` is recorded as 0.26.
For `OCCN1CCN(CCCN2c3ccccc3Sc3ccc(Cl)cc32)CC1`, “log2 fold change” read -2.69.
Under “log2 fold change”, `c1ccc2c(c1)Nc1ccccc1S2` is recorded as 0.7.
For `C[C@H]1[C@H](OC(=O)CCC(=O)O)O[C@@H]2O[C@@]3(C)CC[C@H]4[C@H](C)CC[C@@H]1[C@@]24OO3`, “log2 fold change” read -2.07.
For `C[C@]12CC[C@H](O)CC1=CC[C@@H]1[C@@H]2CC[C@@]2(C)[C@H]1CC[C@]2(C)O`, “log2 fold change” read 0.16.
`CN1C(=O)COc2c(C(=O)NC3CN4CCC3CC4)cc(Cl)cc21` (stereo not drawn): “log2 fold change” 0.18.

Study 5 — cell line: mouse MPNST tumor cells; method: high-content immunofluorescence imaging; measured: nuclear SOX9; concentration: 10 µM; time: 12 h; setting: mean of 2 replicates; baseline: DMSO control; reading: higher = more nuclear SOX9
`CC12NC(Cc3ccccc31)c1ccccc12` (single isomer, unassigned; (+)): “nuclear SOX9 intensity” 95.3 % of DMSO.
`CC(C)[C@@]1(NC(=O)[C@@H]2C[C@@H]3c4cccc5[nH]cc(c45)C[C@H]3N(C)C2)O[C@@]2(O)[C@@H]3CCCN3C(=O)[C@H](Cc3ccccc3)N2C1=O`: “nuclear SOX9 intensity” 125 % of DMSO.
For `Oc1ccc2c3c1O[C@H]1c4[nH]c5c(c4C[C@@]4(O)[C@@H](C2)N(CC2CC2)CC[C@]314)C[C@@]1(O)[C@H]2Cc3ccc(O)c4c3[C@@]1(CCN2CC1CC1)[C@H]5O4`, “nuclear SOX9 intensity” read 93.1 % of DMSO.
For `CCOC(=O)c1ccc(-c2ccc(OC(=O)N(C)Cc3cccc(-c4ccncc4)c3)cc2)cc1`, “nuclear SOX9 intensity” read 126 % of DMSO.
`O=C(N[C@H]1CN2CCC1CC2)c1cc2ccoc2cn1`: “nuclear SOX9 intensity” 99.3 % of DMSO.
`CC(=O)O[C@H]1C[C@@H]2CC[C@@H]3[C@H](CC[C@@]4(C)[C@H]3C[C@H]([N+]3(C)CCCCC3)[C@@H]4OC(C)=O)[C@@]2(C)C[C@@H]1[N+]1(C)CCCCC1` — result for “nuclear SOX9 intensity”: 98.3 % of DMSO.

Mixed results
HTR2C: 5-hydroxytryptamine receptor 2C (HTR2C, Homo sapiens, UniProt P28335)
Chain of UniProt P28335 (whole entry, looked up): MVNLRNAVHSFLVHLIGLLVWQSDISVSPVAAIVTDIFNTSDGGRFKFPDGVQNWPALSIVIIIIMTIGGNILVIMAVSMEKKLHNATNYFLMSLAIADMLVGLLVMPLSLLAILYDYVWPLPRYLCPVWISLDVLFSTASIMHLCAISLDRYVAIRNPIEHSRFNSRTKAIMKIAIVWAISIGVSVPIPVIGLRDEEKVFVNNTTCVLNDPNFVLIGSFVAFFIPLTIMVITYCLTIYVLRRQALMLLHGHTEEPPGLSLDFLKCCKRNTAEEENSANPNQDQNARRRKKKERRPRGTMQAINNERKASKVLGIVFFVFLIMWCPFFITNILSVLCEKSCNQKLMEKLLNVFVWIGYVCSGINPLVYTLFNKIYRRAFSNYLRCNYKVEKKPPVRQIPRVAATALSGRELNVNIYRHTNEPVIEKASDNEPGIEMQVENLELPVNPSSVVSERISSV
The inhibition of `Cc1c(N2CCNCC2)nc2ccc(Br)cc2c1C(=O)NC[C@H](CCC(=O)O)c1ccccc1Cl` is reported as -0.13% (Muscarinic acetylcholine receptor M5 (CHRM5, Homo sapiens, UniProt P08912); ligand displacement; 10 µM).
`CN[C@@H]1C[C@H]2O[C@@](C)([C@@H]1OC)n1c3ccccc3c3c4c(c5c6ccccc6n2c5c31)C(=O)NC4` — result for “G2-M phase cells”: 44.1% and 32% (human CD34+ HSPC; EdU flow cytometry; 100 nM, 24 h).
For `CSc1cccnc1N1CCN(Cc2nc3ccccc3[nH]2)CC1`, the remaining binding was 87% (Serine/threonine-protein kinase PknB (pknB, Mycobacterium tuberculosis, UniProt P9WI81); cell-free assay, competition with immobilised ligand; 1 µM).
With `CC(C)(O)c1cncc(-c2nc3ccc(F)cc3n2C2CC2)c1` the Ki was over 10 µM (HTR2C; binding, radioligand binding).
`CC1=C(C#N)[C@@H](c2ccc3[nH]nc(C)c3c2)C(C#N)=C(c2ccc(Cl)cc2)N1` gave a Ki of over 10 µM (HTR2C; binding, radioligand binding).

Repeated from above (study 1):
`NC(N)=Nc1nc(CSCCC(N)=NS(N)(=O)=O)cs1` has a pseudovirus infection of 98.6%.
`CN1CCC[C@H]1c1cccnc1` gave a pseudovirus infection of 110%.
For `OC(Cn1cncn1)(Cn1cncn1)c1ccc(F)cc1F`, the pseudovirus infection was 100%.
